Experimental data from different studies.
Lines come from different studies, so protocols differ. “And” joins repeats or separate records; there may be more than shown.
Target: Casein kinase I isoform epsilon (CSNK1E, Homo sapiens, UniProt P49674)

SMILES | read-out | action | technique | concentration | relative to | quantity | value
Cc1cccc(O[C@H]2CCC[C@@H](C(C)CNCc3ccncc3)C2)c1 (relative stereo) | enzyme activity | inhibitor | – | 10 µM | – | inhibition | -8%
O=c1c(-c2ccc(Cl)c(CN3CCOCC3)c2)coc2cc(O)ccc12 | enzyme activity | inhibitor | – | 1 µM | – | remaining activity | 108%
COc1cc(Nc2nccc(-c3cnn4nc(OC)ccc34)n2)cc(C(F)(F)F)c1 | binding | – | competition with immobilised ligand | 1 µM | – | remaining binding | 100%
C=CC(=O)N1CCc2ccc(-n3c(=O)ccc4cnc5ccc(-c6cnn(C)c6)cc5c43)cc21 | – | – | KINOMEscan | 1 µM | DMSO control | remaining binding | 96%
Nc1ncc2c(n1)-c1c([nH]c3ccc(C4=CCOCC4)cc13)CCC2 | binding | – | competition with immobilised ligand | 1 µM | – | remaining binding | 90%
O=C(Cc1ccc(OCc2ccccc2)cc1)NC1(C(=O)O)CCN(C(=O)c2ccc(-c3cccc(Cl)c3)cc2)CC1 | enzyme activity | inhibitor | – | 10 µM | – | activity vs control | 74%
COc1c(Cl)cccc1Nc1c(-c2ccncc2C#C[C@@]2(C)CCCN2C(=O)/C=C/CN(C)C)[nH]c2c1C(=O)NCC2 | binding | – | competition with immobilised ligand | 3 µM | – | remaining binding | 60%
CNC(=O)C1CCN(c2cc(C)c(F)cc2NC(=O)c2ccc(-c3cc(O)ccc3C)c(C)c2)CC1 | binding | – | competition with immobilised ligand | 1 µM | – | remaining binding | 29%
COCC12C(=O)NC3C4(C(OC)CC1O)C1CC5(O)C(OC)C(O)C(OC(C)=O)(C1C5OC(=O)c1ccccc1)C3(O)C(OC)C24 (stereo not shown) | kinase activity | inhibitor | ProQinase kinase profiling | 25 µM | control | remaining activity | 95% and 86%
Cc1ccc(-c2c(/C=C(\C#N)C(=O)NC(C)C)n(CCCO)c3ncnc(N)c23)cc1 | cell-free assay | – | competition with immobilised ligand | 1 µM | – | remaining binding | 54%
Cc1cc(NC(=O)[C@H](O)c2cc(F)cc(F)c2)ccc1-c1cnc(N)c(C(=O)NC(C)C)c1 | binding | – | competition with immobilised ligand | 10 µM | – | remaining binding | 30%
NC(=O)[C@@H](O)C[C@H]1CCc2sc3ncnc(O[C@H]4CC[C@H](N5CCOCC5)CC4)c3c21 | enzyme activity | inhibitor | – | 10 µM | – | inhibition | 16%
CNC1C[S+]2CC[S+]3CC[S+](C1)[Ru-4]321([N]=C=S)[n]2c3ccc(OC)cc3c3c4c(c5cc(F)c[n+]1c5c32)C(=O)NC4=O (stereo not shown) | – | – | KinomeScan | 0.1 µM | untreated | remaining binding | 100%

Excerpt of the above:
SMILES | read-out | action | technique | concentration | relative to | quantity | value
COc1c(Cl)cccc1Nc1c(-c2ccncc2C#C[C@@]2(C)CCCN2C(=O)/C=C/CN(C)C)[nH]c2c1C(=O)NCC2 | binding | – | competition with immobilised ligand | 3 µM | – | remaining binding | 60%
